{"data": "Measurements gathered from unrelated publications", "note": "Protocols differ between the studies behind these lines. ± gives the spread as reported."}
{"SMILES": "Cc1ncc(OC[C@@]2(c3cccc(F)c3)C[C@H]2C(=O)Nc2ccc(F)cn2)c(C)n1", "system": "human, plasma", "conditions": "10 mg, alone, geometric mean", "AUC(0-inf)": "0.374 µg·h/mL"}
{"SMILES": "CC[C@@]1(O)C(=O)OCc2c1cc1n(c2=O)Cc2cc3c(CN(C)C)c(O)ccc3nc2-1", "system": "human patients, plasma", "conditions": "oral, 2.5 mg daily for 5 days, day 5 cycle 2, geometric mean, added: pazopanib 800 mg daily", "AUC(0-inf)": "0.0532 µg·h/mL"}
{"SMILES": "Cc1ncc2n1-c1ccc(Cl)cc1C(c1ccccc1F)=NC2", "system": "human, plasma", "conditions": "oral, 2 mg, geometric mean, added: fenebrutinib 200 mg twice daily", "AUC(0-inf)": "0.0397 µg·h/mL"}
{"SMILES": "O=c1[nH]c(Cc2ccccn2)nc2c1cnn2C1CCOCC1", "system": "healthy male human, plasma", "conditions": "oral, 10 mg, geometric mean", "AUC(0-inf)": "0.476 µM·h"}
{"SMILES": "CC[C@H](C)[C@H](NC(=O)[C@H](CC(C)C)NC(=O)[C@H](Cc1c[nH]c2ccccc12)NC(=O)[C@H](CCC(N)=O)NC(=O)[C@@H](NC(=O)[C@H](Cc1ccccc1)NC(=O)[C@H](C)NC(=O)[C@H](CCCCNC(=O)COCCOCCNC(=O)COCCOCCNC(=O)CC[C@H](NC(=O)CCCCCCCCCCCCCCCCCCC(=O)O)C(=O)O)NC(=O)[C@H](CCC(N)=O)NC(=O)[C@H](C)NC(=O)[C@@H](NC(=O)[C@H](CCCCN)NC(=O)[C@H](CC(=O)O)NC(=O)[C@H](CC(C)C)NC(=O)C(C)(C)NC(=O)[C@@H](NC(=O)[C@H](CO)NC(=O)[C@H](Cc1ccc(O)cc1)NC(=O)[C@H](CC(=O)O)NC(=O)[C@H](CO)NC(=O)[C@@H](NC(=O)[C@H](Cc1ccccc1)NC(=O)[C@@H](NC(=O)CNC(=O)[C@H](CCC(=O)O)NC(=O)C(C)(C)NC(=O)[C@@H](N)Cc1ccc(O)cc1)[C@@H](C)O)[C@@H](C)O)[C@@H](C)CC)[C@@H](C)CC)C(C)C)C(=O)N[C@@H](C)C(=O)NCC(=O)NCC(=O)N1CCC[C@H]1C(=O)N[C@@H](CO)C(=O)N[C@@H](CO)C(=O)NCC(=O)N[C@@H](C)C(=O)N1CCC[C@H]1C(=O)N1CCC[C@H]1C(=O)N1CCC[C@H]1C(=O)N[C@@H](CO)C(N)=O", "system": "human, moderate hepatic impairment, plasma", "conditions": "subcutaneous, 5 mg", "AUC(0-inf)": "84.1 µg·h/mL"}
{"SMILES": "Oc1ccc2cc3ccc4cccc5ccc(c2c1)c3c45", "assay": "UPLC-AMS", "system": "human, plasma", "conditions": "oral, 250 ng of [14C]-BaP", "AUC(0-inf)": "65 ± 64.9 fg BaP equivalents·h/mL"}
{"SMILES": "COc1ccsc1CNCC[C@@]1(c2ccccn2)CCOC2(CCCC2)C1", "system": "healthy human, normal renal function, plasma", "conditions": "intravenous, 1 mg single dose, geometric mean", "AUC(0-inf)": "0.0181 µg·h/mL"}
{"SMILES": "COc1ccc(C[C@@H]2NC(=O)[C@H]([C@@H](C)O)NC(=O)[C@@H]3[C@@H]4CCN3C(=O)[C@@H]3Cc5cn(c6ccc(F)cc56)CCCCCCN(Cc5ccc(cc5)CCNC(=O)[C@]5(C)CCCN5C2=O)C(=O)CCC(=O)N[C@@H](C)C(=O)N[C@H](CNC(=O)CCCCC[N+](C)(C)C)C(=O)N[C@@H](Cc2cccc(c2)CNC(=O)CO4)C(=O)N3)cc1", "system": "fasted healthy humans, plasma", "conditions": "oral, 100 mg single dose, with 1800 mg Labrasol, geometric mean", "AUC(0-inf)": "1.08 µM·h"}
{"SMILES": "O[C@H]1CCCN[C@@H]1CCCn1cnc2c(Cl)c(Cl)ccc21", "system": "human, plasma", "conditions": "oral, 600 mg single dose, capsule, geometric mean", "AUC(0-inf)": "1.92 µg·h/mL"}
{"SMILES": "Cc1ncc2n1-c1ccc(Cl)cc1C(c1ccccc1F)=NC2", "system": "healthy human, plasma", "conditions": "oral, 2 mg, added: efavirenz 50 mg, no ritlecitinib", "AUC(0-inf)": "0.0204 µg·h/mL"}
{"SMILES": "CC[C@H](C)[C@H](NC(=O)[C@H](CC(C)C)NC(=O)[C@H](Cc1c[nH]c2ccccc12)NC(=O)[C@H](CCC(N)=O)NC(=O)[C@@H](NC(=O)[C@H](Cc1ccccc1)NC(=O)[C@H](C)NC(=O)[C@H](CCCCNC(=O)COCCOCCNC(=O)COCCOCCNC(=O)CC[C@H](NC(=O)CCCCCCCCCCCCCCCCCCC(=O)O)C(=O)O)NC(=O)[C@H](CCC(N)=O)NC(=O)[C@H](C)NC(=O)[C@@H](NC(=O)[C@H](CCCCN)NC(=O)[C@H](CC(=O)O)NC(=O)[C@H](CC(C)C)NC(=O)C(C)(C)NC(=O)[C@@H](NC(=O)[C@H](CO)NC(=O)[C@H](Cc1ccc(O)cc1)NC(=O)[C@H](CC(=O)O)NC(=O)[C@H](CO)NC(=O)[C@@H](NC(=O)[C@H](Cc1ccccc1)NC(=O)[C@@H](NC(=O)CNC(=O)[C@H](CCC(=O)O)NC(=O)C(C)(C)NC(=O)[C@@H](N)Cc1ccc(O)cc1)[C@@H](C)O)[C@@H](C)O)[C@@H](C)CC)[C@@H](C)CC)C(C)C)C(=O)N[C@@H](C)C(=O)NCC(=O)NCC(=O)N1CCC[C@H]1C(=O)N[C@@H](CO)C(=O)N[C@@H](CO)C(=O)NCC(=O)N[C@@H](C)C(=O)N1CCC[C@H]1C(=O)N1CCC[C@H]1C(=O)N1CCC[C@H]1C(=O)N[C@@H](CO)C(N)=O", "system": "human, severe renal impairment, no dialysis, plasma", "conditions": "subcutaneous, 5 mg single dose, eGFR < 30, geometric mean", "AUC(0-inf)": "83 µg·h/mL"}
{"SMILES": "CN[C@@H]1C[C@H]2O[C@@](C)([C@@H]1OC)n1c3ccccc3c3c4c(c5c6ccccc6n2c5c31)C(=O)N[C@@H]4O", "system": "human patients", "conditions": "intravenous infusion, 24 mg/m^2/24 h, 72 h infusion, cycle 1, mean, added: prednisone", "AUC(0-inf)": "8430 µg·h/mL"}
{"SMILES": "CCCCCOc1ccc(-c2ccc(-c3ccc(C(=O)N[C@H]4C[C@@H](O)[C@@H](OCC[N+](C)(C)C)NC(=O)[C@@H]5[C@@H](O)[C@@H](C)CN5C(=O)[C@H]([C@@H](C)O)NC(=O)[C@H]([C@H](O)[C@@H](O)c5ccc(O)cc5)NC(=O)[C@@H]5C[C@@H](O)CN5C(=O)[C@H]([C@@H](C)O)NC4=O)cc3)cc2)cc1", "system": "healthy adult humans, plasma", "conditions": "subcutaneous, 10 mg, median", "AUC(0-inf)": "37.1 µg·h/mL"}
{"SMILES": "Cc1ncc2n1-c1ccc(Cl)cc1C(c1ccccc1F)=NC2", "system": "healthy human volunteers, plasma", "conditions": "oral, 5 mg single dose, geometric mean, added: water", "AUC(0-inf)": "0.215 µM·h"}
{"SMILES": "Oc1ccc2ccc3c4ccccc4cc4ccc1c2c43", "assay": "UPLC-AMS", "system": "human, plasma", "conditions": "oral, 50 ng of [14C]-BaP", "AUC(0-inf)": "11 ± 6.38 fg BaP equivalents·h/mL"}
